Measured values collected from several papers.
Lines come from different studies, so protocols differ. “And” joins repeats or separate records; there may be more than shown. ≈ marks a conversion by molar mass, not a printed value.
Organism: Klebsiella pneumoniae

SMILES | assay | system | setting | how to read | measurement | value
CN[C@H](CC(C)C)C(=O)N[C@H]1C(=O)N[C@@H](CC(N)=O)C(=O)N[C@H]2C(=O)N[C@H]3C(=O)N[C@H](C(=O)N[C@H](C(=O)O)c4cc(O)cc(O)c4-c4cc3ccc4O)[C@H](O)c3ccc(c(Cl)c3)Oc3cc2cc(c3O[C@@H]2O[C@H](CO)[C@@H](O)[C@H](O)[C@H]2O[C@H]2C[C@](C)(N)[C@H](O)[C@H](C)O2)Oc2ccc(cc2Cl)[C@H]1O | – | ATCC 27736 | 20 h | – | MBC | 1000 µg/mL (≈ 690 µM)
Cc1c(CN(C)C(=O)/C=C/c2cnc3c(c2)CC(NC(=O)OC(C)(C)C)C(=O)N3)oc2ccccc12 (stereo not drawn) | broth microdilution | AR-0034 | – | – | MIC | > 32 µg/mL
N=C(N)c1ccc(OCc2ccccc2COc2ccc(C(=N)N)cc2)cc1 | – | ATCC 13883 | concentration not given, added: rifampicin | – | MIC in combination | 12.5 µg/mL
CN[C@@H]1[C@@H](O[C@H]2O[C@H](CO)[C@@H](N)[C@H](O)[C@H]2O)OC2C[C@@H](N)[C@@H](O[C@H]3[C@H](O)[C@@H](O)[C@H](N)C[C@@H]3N)OC2[C@@H]1O (stereo partly drawn) | broth microdilution | NCTC 13438 | – | relative to: 5% CO2 over ambient air | MIC fold shift | 1
N=C(N)c1ccc(OCCC(CCOc2ccc(C(=N)N)cc2)c2ccccc2)cc1 (stereo not drawn) | checkerboard | ATCC 13883 | unit not given, added: rifampicin | lower = stronger synergy | FICI | ≤ 0.047
C[C@H]1COc2c(N3CCN(C)CC3)c(F)cc3c(=O)c(C(=O)O)cn1c23 | broth microdilution | NCTC 13438 | – | relative to: 5% CO2 over ambient air | MIC fold shift | 2
C[C@@H](O)[C@H]1C(=O)N2C(C(=O)O)=C(S[C@@H]3CN[C@H](C(=O)N(C)C)C3)[C@H](C)[C@H]12 | – | ATCC 700603, mouse lung infection model, lung | 10 mg/kg, 24 h | – | lung bacterial burden | 6.5 log CFU and 5.73 log CFU and 5.44 log CFU and 5.54 log CFU and 5.63 log CFU and 5.66 log CFU
NC[C@H]1O[C@H](O[C@H]2[C@H](O)[C@@H](O[C@H]3O[C@H](CO)[C@@H](O)[C@H](N)[C@H]3O)[C@H](N)C[C@@H]2N)[C@H](N)C[C@@H]1O | broth microdilution | NCTC 13438 | – | relative to: 5% CO2 over ambient air | MIC fold shift | 2
N=C(N)c1ccc(OCc2cc(Br)cc(COc3ccc(C(=N)N)cc3)c2)cc1 | – | ATCC 13883 | concentration not given, added: rifampicin | – | MIC in combination | 6.25 µg/mL

Repeated from above:
SMILES | assay | system | setting | how to read | measurement | value
Cc1c(CN(C)C(=O)/C=C/c2cnc3c(c2)CC(NC(=O)OC(C)(C)C)C(=O)N3)oc2ccccc12 (stereo not drawn) | broth microdilution | AR-0034 | – | – | MIC | > 32 µg/mL
